Measured values of several laboratories.
Each numbered part is a random draw from the data of one study; scales do not carry over between parts. Positions count from the first letter of the parent shown.

Block 1
Target: Ras GTPase-activating protein-binding protein 1, full length (G3BP1, Homo sapiens, UniProt Q13283)
UniProt Q13283, sequence (whole entry, looked up): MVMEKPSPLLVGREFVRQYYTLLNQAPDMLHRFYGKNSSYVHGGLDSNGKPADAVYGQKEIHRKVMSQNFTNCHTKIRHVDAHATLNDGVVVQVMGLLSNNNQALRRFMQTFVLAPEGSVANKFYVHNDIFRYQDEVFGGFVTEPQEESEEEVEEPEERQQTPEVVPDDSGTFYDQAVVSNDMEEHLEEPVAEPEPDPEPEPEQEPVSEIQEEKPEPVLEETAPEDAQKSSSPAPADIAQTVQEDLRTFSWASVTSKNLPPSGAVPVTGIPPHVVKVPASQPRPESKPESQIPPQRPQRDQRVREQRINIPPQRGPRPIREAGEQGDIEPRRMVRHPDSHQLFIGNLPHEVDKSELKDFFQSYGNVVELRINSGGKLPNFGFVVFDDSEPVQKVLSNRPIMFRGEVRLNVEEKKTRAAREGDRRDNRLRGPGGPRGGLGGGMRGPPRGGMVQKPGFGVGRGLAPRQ
Method: RNA Bind-n-Seq
Molecule type: RNA
Matrix: in vitro
Concentration: 200 nM
Setting: whole 134-nt RNA, ends assumed
Together with: 150 mM LiCl
Baseline: input library
Direction: higher = stronger binding
Library: 7-deaza-guanosine replaces G
Constant ends, left off below: GGGAGUUCUACAGUCCGACGAUC … UGGAAUUCUCGGGUGUCAAGG
| Strand | log2 enrichment |
| --- | --- |
| UAACUUUAGAGGAGGAUCUGAUGGAUAUGGCAGUGGACGUGGAUUUGGGGAUGGCUAUAAUGGGUAUGGAGGAGGACCUGGAGGAGGCAA | 0.074 |
| UAACUUUAGAGGAGGAUCUGAUGGAUAUGGCAGUGGACGUGGAUUUGGGGAGGGCUAUAAUGGGUAUGGAGGAGGACCUGGAGGUGGCAA | -0.0473 |
| AAGUCCUGUGCUACACAUCGUAUGUACCGAAUCGGGGAAAAGGAAAAGGGAAAAGGGAAAGUAUUAUGUUACGCCGUUCGGAUCUGCACU | 0.201 |
| AAGUCCUGUGCUACACAUCGUAUGUACCGAAUCGGGGUUUUGGGGUUUUGGUUUUGGAAAGUAUUAUGUUACGCCGUUCGGAUCUGCACU | -0.611 |
| CUGUGCUACACAUCGUAUGUACCGAAUCGGGGAAAAAAAGGGGAAAAAGGGGUUUUUGGGGAAAGUAUUAUGUUACGCCGUUCGGAUCUG | -0.158 |
| ACCAUGCAGGUGGGCAUCUUUGGGAAGUGGGGCAAGGGGGGGAUAGGGAGGGGGGUAACACUUUGGGGACAGGUGGUCCCAGGUCGUUUC | 0.0811 |
| CCUGUGCUACACAUCGUAUGUACCGAAUCGGAAAAAAAGGAAAAAAAGGGGAAAAAAAGGGAAAGUAUUAUGUUACGCCGUUCGGAUCUG | -0.313 |
| UGCCUCCCUGCUGCAGAAAUACACCGACAACAGCGAGAAGCCAUCCGGGAAGAGACUGUGCAAAACCAAACACUUGAUCCCUCAGGAGUC | -1.18 |
| GUCCUGUGCUACACAUCGUAUGUACCGAAUCGGGUUUUUUUGGGAAAGGGUUUUUGGGAAAGUAUUAUGUUACGCCGUUCGGAUCUGCAC | -2.07 |
| UCCUGUGCUACACAUCGUAUGUACCGAAUCGGGUUUUUGGGAAAAAGGGAAAAAAAGGGAAAGUAUUAUGUUACGCCGUUCGGAUCUGCA | -0.526 |
| UCCCUGUCCAAGCUGAGCGCCCUCAACGAGAGCCUUGCUCAGGACAAGUUGGAUCUGAACUGCCUUGUCACCCAGGUACACUGUGCACCU | -0.218 |

Block 2
Target: Histone acetyltransferase KAT6A, both winged helices, GST fusion (KAT6A, Homo sapiens, UniProt Q92794, residues 1-181)
Method: protein binding microarray
Molecule type: double-stranded DNA, one strand shown
Matrix: in vitro
Concentration: not given
Setting: 8-mer, flanks averaged, mean of 2 arrays, mostly near background
Baseline: not given
Direction: higher = stronger binding
Target sequence (chain): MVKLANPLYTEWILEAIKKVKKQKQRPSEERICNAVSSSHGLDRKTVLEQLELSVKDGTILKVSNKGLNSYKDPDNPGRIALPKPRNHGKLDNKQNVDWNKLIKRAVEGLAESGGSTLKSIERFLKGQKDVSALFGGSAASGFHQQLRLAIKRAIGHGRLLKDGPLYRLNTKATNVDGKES
| Strand | E-score |
| --- | --- |
| CATAATGA | -0.0485 |
| GTCGTCCA | 0.0101 |
| AGGCGCTC | 0.174 |
| CTGCCCCC | -0.142 |
| AGATCCGA | -0.012 |
| GAAACCCC | 0.0502 |
| CCTGTCTC | -0.206 |
| ACATTTGC | -0.0561 |
| GCGAGTAC | 0.151 |
| TATGCTCA | 0.0216 |
| AATGTGCT | 0.0664 |
| ACAATTTC | -0.0775 |
| AAAAAGCT | 0.0365 |
| AGACGCGA | 0.141 |
| AACCCCCG | 0.138 |
| ATGTCTGC | -0.0193 |
| GGTTTTCA | 0.0404 |
| CCCACAGG | -0.255 |
| ACGCCCAG | -0.0381 |
| GATTAGAC | 0.0247 |
| AAGCCATA | -0.23 |
| ATCGGGAG | -0.0551 |
| AAAGATTG | -0.189 |
| CGTATGAA | 0.114 |

Block 3
Target: RING finger protein unkempt homolog, zinc fingers 1-6, GST-SBP tag (UNK, Homo sapiens, UniProt Q9C0B0, residues 30-357)
Method: RNA Bind-n-Seq
Molecule type: RNA
Matrix: in vitro
Concentration: not given
Setting: RNA with constant flanks, human and mouse sites, ends assumed
Baseline: input RNA pool
Direction: higher = stronger binding
Constant ends, left off below: GGGAGUUCUACAGUCCGACGAUC … CAACAGAGGAUUGAGCAUCA
Target sequence (chain): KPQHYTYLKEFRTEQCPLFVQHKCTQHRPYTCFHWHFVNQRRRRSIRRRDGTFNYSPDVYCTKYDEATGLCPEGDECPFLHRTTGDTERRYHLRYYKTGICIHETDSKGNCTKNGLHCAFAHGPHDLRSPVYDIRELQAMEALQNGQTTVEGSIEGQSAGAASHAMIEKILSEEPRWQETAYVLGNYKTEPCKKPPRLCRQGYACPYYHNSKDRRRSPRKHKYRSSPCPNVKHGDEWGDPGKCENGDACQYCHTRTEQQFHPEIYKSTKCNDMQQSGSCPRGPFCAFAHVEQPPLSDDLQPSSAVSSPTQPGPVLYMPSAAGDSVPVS
| Strand | bound/input enrichment |
| --- | --- |
| AAUCAAGAAGUAGAAUUCGGCAGAAAUCGAGAGAGGCUUCAGUUUUUUAAGUGGAGUUCAAGAGUUUUUAAGAAUGUGGCAGUGAUCCCUCCUGGAACUGGAAUGGCUCAUCAAAUAAAC | 0.345 ratio |
| AUCACCAAGCUAGACUUGAUGGAUGAAGGCACAGACGCCAGGGAUGUCCUGGAAAACAAGCUACUGCCCUUGAGAAGAGGCUAUAUCGGCGUGGUUAACCGAAGCCAGAAAGACAUCGAG | 0.116 ratio |
| GAAAAAAACUCGAAACAAUCCCAAUGACAAUUGUGGUAACAACUCUUUAUUUUAUGGAUAUUUGUUCAUAAUGUUAAAACAAACGAAGACUUCAUAUUUAAUAUAUUUUUUACAUAACCU | 1.57 ratio |
| AAUGCUGACCUGUUCCGUGGCACACUGGACCCUGUAGAGAAGGCCCUUCGAGAUGCCAAGCUGGACAAGUCACAGAUCCAUGAUAUUGUCUUGGUGGGUGGUUCUACCAGAAUCCCCAAG | 0.0693 ratio |
| UCAGGUCUUAUAAUUUCAGAUGUUGUUUUUUAAGGGAAAUUGACCAUUUCACUAGAGGAGUUGUGCUGGUUUUUAAAUGUGCAUCAAGAAAGACUACUGAAAAGUAUUAUUUUGUAACUA | 0.247 ratio |
| UACUUCUGGAUUCCAGGAAAAAUUCUUAUAACUAAAAUCAAUAUGUUUUAAAAGUCACCAUAUAGCUUCUUACUAGUUAUCUUUUAAAGACUGUGGUGGUCUUAAAAGGGAACAAAAGCU | 3.19 ratio |
| UUGGAACAGGCUGAUGAAGACUUAGCUACCGGCUUGGCAUUGAUUGACCUGGGUCAGAGUAUAGAUAUGAAACUUUUCCCUAAAGGAACUGUAUUUACAGGAAAAUGUGAAACAUCUGGU | 0.134 ratio |
| UAUUUAACGACAUAUCCAUGAGAGGAAGGGAUAACAGAUAGUGUGUGCUUGCCUCUGAAAAGUCUCCAUUUUCAGCAGCUUCAAUGGCUUUCUGUGCAAUAUAGUUCCUCAGGACGUACU | 0.32 ratio |
| CGGCCUGCUGGGAACGGGACUUCUAAAAGGAACUAUGUCUGGAAGGCUGUGGUCCAAGGCCAUUUUUGCUGGCUAUAAGCGGGGUCUCCGGAACCAAAGGGAGCACACAGCUCUUCUUAA | 0.104 ratio |
| UUCUUCACUCCGUAUGUAUAUCCAGCCACGUGGCCCGAGGACAACAUCAUCCGACAAACUAUUAGCCUCCUGAUUGUCACAAACCUGGGUGCUUACAUUCUCUACUUCUUCUGUGCAACC | 0.461 ratio |
| GAAUACUCCAAAUCCUAAAUUACACUGAGAUCUAGACCUUCAUUUGGCAGGGUCAGGCCAUUGGAUGGUGUUGCUGUAUUGUCUUGUCGUGUUUUUAAAAUCUGUGCACUUUGUCCAAAG | 0.238 ratio |

Block 4
Target: Hepatocyte nuclear factor 3-alpha (Foxa1, Mus musculus, UniProt P35582, residues 1-468, full length assumed)
Method: EMSA with sequencing
Molecule type: double-stranded DNA, one strand shown
Matrix: in vitro
Concentration: 10 and 20 nM
Setting: whole designed probe, mean of two concentrations, ends assumed
Baseline: negative control set to 0
Direction: higher = stronger binding
Constant ends, left off below: GTGAGCGGTGCCCATTGATGGGGAAC … TTTCACTGGGATCGTGGGGAC
Target sequence (chain): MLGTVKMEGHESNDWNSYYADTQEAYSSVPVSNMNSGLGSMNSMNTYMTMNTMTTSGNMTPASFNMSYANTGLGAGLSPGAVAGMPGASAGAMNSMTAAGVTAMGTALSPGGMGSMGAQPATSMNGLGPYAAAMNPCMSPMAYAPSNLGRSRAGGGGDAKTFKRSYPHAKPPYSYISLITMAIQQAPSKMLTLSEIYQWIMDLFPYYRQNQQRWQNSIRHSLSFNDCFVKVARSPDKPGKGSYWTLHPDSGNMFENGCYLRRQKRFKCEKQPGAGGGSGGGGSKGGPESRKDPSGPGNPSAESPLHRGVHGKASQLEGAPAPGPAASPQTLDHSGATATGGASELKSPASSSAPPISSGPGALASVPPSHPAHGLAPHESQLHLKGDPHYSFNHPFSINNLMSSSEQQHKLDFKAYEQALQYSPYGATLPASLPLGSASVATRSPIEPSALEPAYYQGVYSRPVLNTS
| Strand | normalised bound fraction [ratio] |
| --- | --- |
| GTAAAGCCAGTTACTTTTGTTATGTTTATGAATTCCTAGGCCTCTTGACAAACACTGAGGTTCTCAAACATTGGCAAACACAAGTCACATTAGGTAATCTTACAAATTCTTGGCCTTAGTTCCATATATTTTATTCTGAACAAATAGCCCTTAAGTCAAAATTGAGAAACAATGATTAGTAATAAGTTTTTAC | 0.206 |
| GAAATCAGATGGGAACAAACTATTCCAATATACAAATCAAATTTCAGAGTCTGAGTGTACACAGAAAAATTACTGGATATCCTGTTGGACTATGTACATAACAATGACACAGTGATTTATGAGGGTATGATGGGGCAGAGGGTAGCGGGTGATGTTGGAGTTGATTCATCACTTAAGCGCTAATCCATTCACC | 0.245 |
| CATTAGAGTCAAAGTTGTTAAGGGGAGCTAGTCATAGCTACCACGTGGCCAGGCATGTGGAACCAGACACCAGGATGAATCATCACACATAAAGTAAATAGATGAATAATGCTGACAACCTAGTTCATAGTGACACACTACTTGAGATATATAGAATAACATTATTACCCAGTAAGTATGTGAACATTCCGAT | 0.435 |
| TCCTTTATCCCAACATGTTTATACAGACAAAACCAGGTTAAAATCGACACAAGGTCAACTTGAAATAAGAGGAAGGTGGGGAGACGTCACAAAATAAACATGAAGTCTTGTGTACAAGCATCTGCAGAAGAGTTCAGCCTCACCACTTGGGTAATGCTGTTGGAATGTGGTCTGGGTTCACTGTATTTGAATG | 0.387 |
| TAGCAGGTCACTGCCAGTCACGAGGGCAGAGAGACCCAAAGGATCAGAGAACAGCTCTGAGCAGGTCAAGGGCAGTGCCAGAAGGAAAGCCTTAGATTACAGAGGGAAAGATCCTGCACCTTGAAGTGAGGCATTAAAGAGTAGAGGGGCTTTGCACCTGCATCCTAAGCCTCTTGGTTCACCACTAAGCCGC | -0.0819 |
| TCAGGTCAGAGCAGGTGACCAGGGGTGACTCAGGATGGAGCAGGTGACCAGAGGAATAGAGGTGAACTACTGATTAGAACTGGTGGAAAAGGTAGATTACTGAAACTAGAGGCGAGGAGAACGAGGAAGCTAGACTTTAGAGCGCAAAGAACCGAGCATACTGACATACTGATTCTTTGAAGAGAAATTTAGA | -0.0541 |
| TGAGGACTGGAACATTATAGTTTTATATCTCACACTAACAGAAAACTCTTTGATATATTGCAATTATTCAATGCATGTTTAATAAATAATAAGTAATCTTGGCATAAAAATAATTTTAATTGTGGACTTTTATTATTAAAACACTTTTAATTATTATTTAATTAACAATTTTAATTATGAAATCTGCATTCAA | 0.128 |
| TGCTACTGCCTGTCCCTGGAATTTGATAGAAACCTCCATGACTCTCCCTTTGTTTTCCAAATAGGCCTTTCAACTTTTAATTATTTCTCCCATGTTTACTTTTCTAAAACATTTGAGATCACATCTTATCATTTGTAATTCATTATCCCACTTGGTAGATGAAGTTGCTATTAAATACTGGATTGTAGACAAG | 0.454 |

Block 5
Target: CCNA2, cyclin fold, Cln2 fusion (human)
Method: yeast growth competition, sequencing
Matrix: yeast
Setting: strong parent motif
Baseline: not given
Direction: higher = stronger binding
Starting sequence: CABLES2 docking peptide (human); ICAKRSLCAAFSV
| Variant | normalised enrichment score |
| --- | --- |
| ICAKRSLCAAFAV [S12A] | 2.73 |
| ICAARSLCAAFSV [K4A] | 0.716 |
| ICAKRSLCAAASV [F11A] | 0.46 |
| ACAKRSLCAAFSV [I1A] | 2.16 |

Excerpt of the above (block 5):
| Variant | normalised enrichment score |
| --- | --- |
| ICAKRSLCAAFAV [S12A] | 2.73 |
| ICAARSLCAAFSV [K4A] | 0.716 |
| ICAKRSLCAAASV [F11A] | 0.46 |
| ACAKRSLCAAFSV [I1A] | 2.16 |
